# Measured values collected from several papers.
# Each numbered part is a random draw from the data of one study; scales do not carry over between parts. Several values in a cell are separate wells, animals, samples, runs or records.

# Study 1 — cell line: A-375; tested at: 100 µM; time: 36 h
SMILES,viability
NCCCCCC(=O)O,98.8%
CCOc1cc(N)c(Cl)cc1C(=O)NCC1CN(Cc2ccc(F)cc2)CCO1 (stereo not shown),73.7%
N#Cc1ccc(C(c2ccc(C#N)cc2)n2cncn2)cc1,108%
Nc1nc2c(ncn2CCC(CO)CO)c(=O)[nH]1,95%
CC(=O)O[C@]1(C(C)=O)CC[C@H]2[C@@H]3C=C(Cl)C4=CC(=O)CC[C@]4(C)[C@H]3CC[C@@]21C,17.9%
N=C(N)NC(=O)c1nc(Cl)c(N)nc1N,112% and 105%

# Study 2 — cell line: mouse MPNST tumor cells; technique: high-content nuclear imaging; item: cell number; tested at: 10 µM; time: 12 h; notes: mean of 2 replicates; relative to: plate mean; direction: higher = more cells
SMILES,nuclei count
C[C@@H](CN1CCC(n2c(=O)[nH]c3cc(Cl)ccc32)CC1)NC(=O)c1ccc2ccccc2c1,-6.12 z-score
CCCCN(CCCC)CC(O)c1cc(Cl)cc2c1-c1ccc(Cl)cc1/C2=C/c1ccc(Cl)cc1 (stereo not shown),2.32 z-score
CC(C)N(CCCNC(=O)Nc1ccc(C(C)(C)C)cc1)C[C@H]1O[C@@H](n2cc(Br)c3c(N)ncnc32)[C@H](O)[C@@H]1O,-1.18 z-score and -0.791 z-score
CC(C)c1cc(C(C)C)c(CC(=O)NS(=O)(=O)Oc2c(C(C)C)cccc2C(C)C)c(C(C)C)c1,2.1 z-score

# Study 3 — observed: cell-free assay; tested at: 10 µM
# Target: 5-hydroxytryptamine receptor 1E (HTR1E, Homo sapiens, UniProt P28566)
# Chain of UniProt P28566 (whole entry, looked up): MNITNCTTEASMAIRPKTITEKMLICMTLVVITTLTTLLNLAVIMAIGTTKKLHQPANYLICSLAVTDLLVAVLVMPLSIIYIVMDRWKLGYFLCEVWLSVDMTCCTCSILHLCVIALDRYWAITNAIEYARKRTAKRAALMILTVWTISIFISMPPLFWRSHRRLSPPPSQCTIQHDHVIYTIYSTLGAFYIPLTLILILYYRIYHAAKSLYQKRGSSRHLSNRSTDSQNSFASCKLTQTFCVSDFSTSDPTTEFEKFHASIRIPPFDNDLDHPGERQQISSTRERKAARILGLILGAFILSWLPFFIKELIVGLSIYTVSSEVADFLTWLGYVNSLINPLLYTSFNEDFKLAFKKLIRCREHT
Compound,inhibition [%]
Cc1noc([C@H]2C[C@@H](c3ccc(C(F)(F)F)cc3)CN(C(=O)N3CCS(=O)(=O)C3)C2)n1,21.5
c1ccc(C2CCN(c3cnc4c(N5CCOCC5)nccn34)CC2)cc1,5.84
C[C@H](c1ccc(F)cc1)N(Cc1ccc(Cl)c(C(=O)O)c1)C(=O)c1cnc2ccccc2c1,-24.9
Cc1c(N2CCCC2)nc2ccc(Br)cc2c1C(=O)NC[C@H](CCC(=O)O)c1ccccc1Cl,-44.4
CNC(=O)Nc1ccc2c(c1)[C@]1(CC2)OC(=O)N(CC(=O)N(Cc2ccc(F)cc2)[C@@H](C)C(F)(F)F)C1=O,0.33
CN(C)[C@@H]1CCN(c2cc(-c3ccccc3)nc3ccnn23)C1,7.26
Nc1nc(NCc2ccccc2)nc(-c2ccccc2CO)n1,-20
CNC(=O)Nc1ccc2c(c1)CC[C@]21OC(=O)N(CC(=O)N(Cc2ccc(F)cc2)[C@@H](C)C(F)(F)F)C1=O,4.23
O[C@]1(C(F)(F)F)CCCC[C@H]1Nc1ccc(F)cc1,-10.4

# Study 4 — Substance: H2AC7 (Homo sapiens, UniProt P20671); technique: cross-linking MS; notes: hits only
partner,interaction screen
"H3-7 (Homo sapiens, UniProt Q5TEC6)",cross-linked
"H2BC3 (Homo sapiens, UniProt P33778)",cross-linked
"H2BC20P (Homo sapiens, UniProt Q6DN03)",cross-linked

# For quick reference, copied from above (study 1):
SMILES,viability
Nc1nc2c(ncn2CCC(CO)CO)c(=O)[nH]1,95%
CC(=O)O[C@]1(C(C)=O)CC[C@H]2[C@@H]3C=C(Cl)C4=CC(=O)CC[C@]4(C)[C@H]3CC[C@@]21C,17.9%
N=C(N)NC(=O)c1nc(Cl)c(N)nc1N,112% and 105%
